Results pooled from the literature.
Protocols differ between the studies behind these lines. ± marks the error that the study gave.
Sequence of UniProt Q9HB89 (whole entry, looked up): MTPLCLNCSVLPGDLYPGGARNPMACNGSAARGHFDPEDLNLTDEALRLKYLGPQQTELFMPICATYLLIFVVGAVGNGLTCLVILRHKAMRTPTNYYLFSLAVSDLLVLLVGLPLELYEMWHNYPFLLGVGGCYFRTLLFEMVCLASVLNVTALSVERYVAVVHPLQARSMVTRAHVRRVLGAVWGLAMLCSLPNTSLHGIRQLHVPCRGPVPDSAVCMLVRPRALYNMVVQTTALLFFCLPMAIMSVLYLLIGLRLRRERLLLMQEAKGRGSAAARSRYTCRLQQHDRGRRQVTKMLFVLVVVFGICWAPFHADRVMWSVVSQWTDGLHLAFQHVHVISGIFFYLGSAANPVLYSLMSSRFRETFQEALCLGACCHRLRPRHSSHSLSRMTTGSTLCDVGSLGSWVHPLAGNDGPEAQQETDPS
Sequence of UniProt Q14012 (whole entry, looked up): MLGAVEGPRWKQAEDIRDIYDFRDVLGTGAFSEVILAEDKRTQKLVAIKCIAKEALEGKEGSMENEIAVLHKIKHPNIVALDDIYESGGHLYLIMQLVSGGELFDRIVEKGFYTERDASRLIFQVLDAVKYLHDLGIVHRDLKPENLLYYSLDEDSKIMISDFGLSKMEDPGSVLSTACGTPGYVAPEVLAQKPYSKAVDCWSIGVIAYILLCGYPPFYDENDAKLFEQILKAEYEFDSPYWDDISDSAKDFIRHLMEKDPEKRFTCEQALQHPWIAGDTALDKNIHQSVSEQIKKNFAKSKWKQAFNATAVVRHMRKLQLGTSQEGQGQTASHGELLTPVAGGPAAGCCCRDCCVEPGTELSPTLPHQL
Sequence of UniProt Q13561 (whole entry, looked up): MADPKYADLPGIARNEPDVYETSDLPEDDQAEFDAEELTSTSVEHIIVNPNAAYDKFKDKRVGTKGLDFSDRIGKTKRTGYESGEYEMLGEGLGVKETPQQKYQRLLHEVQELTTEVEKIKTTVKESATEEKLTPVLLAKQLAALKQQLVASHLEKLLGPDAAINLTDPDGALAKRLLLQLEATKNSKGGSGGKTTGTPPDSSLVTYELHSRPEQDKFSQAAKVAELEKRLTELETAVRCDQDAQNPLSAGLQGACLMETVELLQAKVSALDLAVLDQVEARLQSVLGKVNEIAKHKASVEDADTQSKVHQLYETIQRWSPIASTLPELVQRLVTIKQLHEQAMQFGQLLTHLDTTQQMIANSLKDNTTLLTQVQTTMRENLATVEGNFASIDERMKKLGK
Sequence of UniProt Q8NET8 (whole entry, unmodified, looked up): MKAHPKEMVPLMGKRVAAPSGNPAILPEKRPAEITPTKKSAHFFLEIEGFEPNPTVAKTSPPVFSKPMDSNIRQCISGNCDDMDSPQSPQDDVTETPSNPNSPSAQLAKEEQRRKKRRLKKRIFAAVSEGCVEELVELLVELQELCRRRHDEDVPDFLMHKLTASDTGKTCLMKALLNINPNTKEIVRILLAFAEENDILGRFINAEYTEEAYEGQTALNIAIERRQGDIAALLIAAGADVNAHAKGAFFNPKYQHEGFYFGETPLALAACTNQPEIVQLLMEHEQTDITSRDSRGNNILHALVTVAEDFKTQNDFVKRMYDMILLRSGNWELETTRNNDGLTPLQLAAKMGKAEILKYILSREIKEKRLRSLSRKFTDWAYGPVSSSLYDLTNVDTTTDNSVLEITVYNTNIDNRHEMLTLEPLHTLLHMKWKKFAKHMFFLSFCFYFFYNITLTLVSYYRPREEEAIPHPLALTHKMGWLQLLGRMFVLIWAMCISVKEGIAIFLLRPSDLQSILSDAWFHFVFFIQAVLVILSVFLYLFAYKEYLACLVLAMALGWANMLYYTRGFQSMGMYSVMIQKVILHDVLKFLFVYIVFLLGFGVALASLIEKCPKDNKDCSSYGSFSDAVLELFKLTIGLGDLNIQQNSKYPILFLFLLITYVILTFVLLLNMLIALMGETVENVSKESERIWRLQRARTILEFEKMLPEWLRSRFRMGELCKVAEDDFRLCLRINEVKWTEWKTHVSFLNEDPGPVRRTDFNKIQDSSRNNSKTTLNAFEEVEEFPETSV
Sequence of UniProt P60893 (whole entry, looked up): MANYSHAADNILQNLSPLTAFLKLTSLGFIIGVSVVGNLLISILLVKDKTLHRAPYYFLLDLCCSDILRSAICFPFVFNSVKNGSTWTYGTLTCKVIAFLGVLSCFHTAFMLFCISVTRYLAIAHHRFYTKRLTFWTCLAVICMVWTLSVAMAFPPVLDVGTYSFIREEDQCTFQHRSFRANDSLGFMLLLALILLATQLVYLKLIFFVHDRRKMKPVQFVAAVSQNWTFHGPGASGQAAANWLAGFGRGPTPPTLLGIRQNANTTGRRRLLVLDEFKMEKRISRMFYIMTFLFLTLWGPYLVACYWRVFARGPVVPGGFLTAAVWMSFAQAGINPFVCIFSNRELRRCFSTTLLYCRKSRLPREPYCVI
Sequence of UniProt Q7L211 (whole entry, looked up): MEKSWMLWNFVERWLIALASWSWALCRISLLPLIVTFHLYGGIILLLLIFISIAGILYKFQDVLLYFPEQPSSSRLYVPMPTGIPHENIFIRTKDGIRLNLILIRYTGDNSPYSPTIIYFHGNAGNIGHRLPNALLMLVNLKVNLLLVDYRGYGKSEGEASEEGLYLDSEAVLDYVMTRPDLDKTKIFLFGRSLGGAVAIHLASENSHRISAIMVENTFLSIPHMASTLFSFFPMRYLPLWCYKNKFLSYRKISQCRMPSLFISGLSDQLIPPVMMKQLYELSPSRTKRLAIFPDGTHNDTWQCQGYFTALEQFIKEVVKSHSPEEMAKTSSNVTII
Sequence of UniProt Q13233 (whole entry, looked up): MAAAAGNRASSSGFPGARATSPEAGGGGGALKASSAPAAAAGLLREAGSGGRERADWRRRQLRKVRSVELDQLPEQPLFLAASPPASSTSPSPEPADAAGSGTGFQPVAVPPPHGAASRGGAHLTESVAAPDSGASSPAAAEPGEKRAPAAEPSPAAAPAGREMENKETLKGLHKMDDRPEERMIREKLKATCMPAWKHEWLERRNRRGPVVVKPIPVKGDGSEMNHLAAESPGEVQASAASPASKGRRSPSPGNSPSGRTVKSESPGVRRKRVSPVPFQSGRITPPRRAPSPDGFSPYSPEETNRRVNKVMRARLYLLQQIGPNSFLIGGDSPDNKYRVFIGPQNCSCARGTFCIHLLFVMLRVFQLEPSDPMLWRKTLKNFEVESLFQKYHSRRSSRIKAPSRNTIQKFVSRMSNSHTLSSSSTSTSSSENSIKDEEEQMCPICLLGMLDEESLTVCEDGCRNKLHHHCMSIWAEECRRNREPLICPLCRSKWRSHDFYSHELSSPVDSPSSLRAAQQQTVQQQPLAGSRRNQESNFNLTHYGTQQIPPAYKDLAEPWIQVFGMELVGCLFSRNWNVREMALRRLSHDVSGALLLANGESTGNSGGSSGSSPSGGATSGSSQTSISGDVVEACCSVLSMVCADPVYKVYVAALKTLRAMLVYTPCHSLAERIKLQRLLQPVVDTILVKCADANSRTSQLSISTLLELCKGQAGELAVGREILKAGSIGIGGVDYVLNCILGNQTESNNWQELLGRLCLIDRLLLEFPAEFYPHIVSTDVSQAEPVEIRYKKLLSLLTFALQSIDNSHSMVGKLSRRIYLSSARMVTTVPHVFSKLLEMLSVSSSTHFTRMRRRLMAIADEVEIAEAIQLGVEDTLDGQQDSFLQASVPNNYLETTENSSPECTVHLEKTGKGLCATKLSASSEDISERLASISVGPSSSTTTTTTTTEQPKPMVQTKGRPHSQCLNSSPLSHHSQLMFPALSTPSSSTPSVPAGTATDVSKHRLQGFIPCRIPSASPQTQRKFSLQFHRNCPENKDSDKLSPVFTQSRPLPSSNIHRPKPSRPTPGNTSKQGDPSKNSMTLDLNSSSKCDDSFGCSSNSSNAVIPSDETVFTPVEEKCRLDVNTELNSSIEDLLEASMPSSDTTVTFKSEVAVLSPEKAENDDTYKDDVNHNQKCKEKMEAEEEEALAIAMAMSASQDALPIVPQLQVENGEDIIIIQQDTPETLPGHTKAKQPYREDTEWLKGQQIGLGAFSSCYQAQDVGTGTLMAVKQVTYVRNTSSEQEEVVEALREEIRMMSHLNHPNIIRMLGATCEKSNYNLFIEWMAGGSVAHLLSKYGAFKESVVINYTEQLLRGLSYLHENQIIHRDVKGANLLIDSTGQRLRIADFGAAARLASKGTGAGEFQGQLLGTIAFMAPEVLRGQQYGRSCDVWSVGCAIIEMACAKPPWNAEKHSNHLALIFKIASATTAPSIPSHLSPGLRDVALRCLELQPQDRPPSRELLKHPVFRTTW
Sequence of UniProt P28335 (whole entry, looked up): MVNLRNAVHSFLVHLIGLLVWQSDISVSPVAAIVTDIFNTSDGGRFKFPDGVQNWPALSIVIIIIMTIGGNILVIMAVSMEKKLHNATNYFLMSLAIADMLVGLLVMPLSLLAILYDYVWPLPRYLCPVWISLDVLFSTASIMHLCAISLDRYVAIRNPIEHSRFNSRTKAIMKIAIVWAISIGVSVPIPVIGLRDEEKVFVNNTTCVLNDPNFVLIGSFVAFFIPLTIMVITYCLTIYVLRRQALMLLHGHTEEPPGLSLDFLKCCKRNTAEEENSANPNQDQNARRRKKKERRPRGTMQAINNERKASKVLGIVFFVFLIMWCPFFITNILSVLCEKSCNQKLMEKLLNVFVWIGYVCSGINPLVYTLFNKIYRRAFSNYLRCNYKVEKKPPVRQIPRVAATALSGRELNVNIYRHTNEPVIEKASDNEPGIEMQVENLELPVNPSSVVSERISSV

[2H]c1c([2H])c([C@]2([2H])CCCN2C(=O)C(C)(C)Oc2ccc3cn[nH]c3c2)c([2H])c([2H])c1C([2H])([2H])[2H]  remaining binding (MAP3K1 (Homo sapiens, UniProt Q13233); KINOMEscan; 1 µM; reference: DMSO control): 72%
CC[C@H](C)[C@H](NC(=O)CNC(=O)[C@@H](N)CCCCN)C(=O)N[C@@H](CC(C)C)C(=O)N[C@@H](CCCCN)C(=O)N[C@@H](CCCNC(=N)N)C(=O)N[C@@H](CCC(=O)O)C(=O)N[C@@H](CCCCN)C(=O)N[C@@H](CCCNC(=N)N)C(=O)N[C@@H](CC(C)C)C(=O)N[C@@H](CCCNC(=N)N)C(=O)N[C@@H](CCCNC(=N)N)C(=O)N[C@@H](CCCCN)C(=O)N[C@@H](CC(N)=O)C(=O)N[C@H](C(=O)N[C@@H](Cc1c[nH]cn1)C(=O)N[C@@H](Cc1c[nH]c2ccccc12)C(=O)N1CCC[C@H]1C(=O)N[C@@H](CCC(=O)O)C(=O)N[C@@H](CCC(=O)O)C(=O)NCC(=O)N[C@@H](CCCCN)C(=O)N[C@@H](CC(C)C)C(=O)N[C@@H](CCCNC(=N)N)C(=O)N[C@@H](CCC(=O)O)C(=O)N[C@@H](Cc1ccc(O)cc1)C(=O)N[C@@H](Cc1ccccc1)C(=O)N[C@@H](Cc1ccc(O)cc1)C(=O)N[C@@H](Cc1ccccc1)C(=O)N[C@@H](CCC(=O)O)C(=O)N[C@@H](CC(C)C)C(=O)N[C@@H](CC(=O)O)C(=O)N[C@@H](CCC(=O)O)C(=O)N[C@@H](C)C(=O)N[C@@H](CCC(=O)O)C(=O)N[C@@H](CCCNC(=N)N)C(=O)N[C@H](C(=O)N[C@@H](CC(N)=O)C(=O)N[C@H](C(=O)O)C(C)C)C(C)C)C(C)C  log2 fold change (HeLa and HEK-293T cells; phosphatase bead binding, competitive inhibitor, PIB pulldown LC-MS/MS, item: KNL1; concentration not given; reference: untreated control): -5.26
COc1ccc(N2C(=O)N(c3c(C)cccc3Cl)Cc3cnc(Nc4ccc(C5CCN(C)CC5)cc4OC)nc32)nc1  inhibition (CAMK1 (Homo sapiens, UniProt Q14012); kinase activity, inhibitor; 0.5 µM, kinase CAMK1A): 4.26%
O=C(c1ccc(Cl)cc1)N1CCN2C(=O)N(OC(=O)N3CCOc4ccccc43)C(=O)C2C1 (centres unmarked)  median ratio (Protein ABHD13 (ABHD13, Homo sapiens, UniProt Q7L211); enzyme activity, inhibitor, MS-based ABPP; SW-620 in situ; 10 µM, 2 h, 37 °C; reference: compound over DMSO, lower = stronger inhibition): 1.24
Cc1[nH]c2ccc(O)cc2c1-c1csc(-c2c[nH]c3cc(O)ccc23)n1  53BP1 binding at HPV ori (differentiated W12E; CUT&RUN-qPCR; concentration not given; reference: untreated): decreased
CCCc1cc(O)c2c(c1)OC(C)(C)[C@@H]1CCC(C)=C[C@@H]21  Hill coefficient (TRPV3 (Homo sapiens, UniProt Q8NET8, A560L); calcium uptake, agonist; HEK293S; mutant A560L, site 1): 1.95 ± 0.18
Oc1ccc2c3c1O[C@H]1[C@@H](O)CC[C@@]4(O)[C@@H](C2)N(CC2CCC2)CC[C@]314  log2 fold change (Probable G-protein coupled receptor 85 (GPR85, Homo sapiens, UniProt P60893); β-arrestin recruitment, TANGO luminescence, item: GPR85; concentration not given; reference: basal luminescence): 0.022
CN1CCN(c2cc(-c3ccncc3)c(-c3ccc4ccccc4c3)nn2)CC1  inhibition (NMUR1 (Homo sapiens, UniProt Q9HB89); antagonist, FLIPR; 10 µM): 0.5%
CC[C@H](C)[C@H](NC(=O)CNC(=O)[C@@H](N)CCCCN)C(=O)N[C@@H](CC(C)C)C(=O)N[C@@H](CCCCN)C(=O)N[C@@H](CCCNC(=N)N)C(=O)N[C@@H](CCC(=O)O)C(=O)N[C@@H](CCCCN)C(=O)N[C@@H](CCCNC(=N)N)C(=O)N[C@@H](CC(C)C)C(=O)N[C@@H](CCCNC(=N)N)C(=O)N[C@@H](CCCNC(=N)N)C(=O)N[C@@H](CCCCN)C(=O)N[C@@H](CC(N)=O)C(=O)N[C@H](C(=O)N[C@@H](Cc1c[nH]cn1)C(=O)N[C@@H](Cc1c[nH]c2ccccc12)C(=O)N1CCC[C@H]1C(=O)N[C@@H](CCC(=O)O)C(=O)N[C@@H](CCC(=O)O)C(=O)NCC(=O)N[C@@H](CCCCN)C(=O)N[C@@H](CC(C)C)C(=O)N[C@@H](CCCNC(=N)N)C(=O)N[C@@H](CCC(=O)O)C(=O)N[C@@H](Cc1ccccc1)C(=O)N[C@@H](Cc1ccccc1)C(=O)N[C@@H](Cc1ccccc1)C(=O)N[C@@H](Cc1ccccc1)C(=O)N[C@@H](CCC(=O)O)C(=O)N[C@@H](CC(C)C)C(=O)N[C@@H](CC(=O)O)C(=O)N[C@@H](CCC(=O)O)C(=O)N[C@@H](C)C(=O)N[C@@H](CCC(=O)O)C(=O)N[C@@H](CCCNC(=N)N)C(=O)N[C@H](C(=O)N[C@@H](CC(N)=O)C(=O)N[C@H](C(=O)O)C(C)C)C(C)C)C(C)C  log2 fold change (HeLa and HEK-293T cells; phosphatase bead binding, competitive inhibitor, PIB pulldown iBAQ LC-MS/MS, item: PPP4R2; concentration not given; reference: untreated control): 0.02
O=S(=O)([O-])C(F)(F)C(F)(F)C(F)(F)C(F)(F)C(F)(F)C(F)(F)C(F)(F)C(F)(F)F.[K+]  mRNA level (RT-qPCR, item: Cyp4a10; pair-fed mice, liver; dose not given): increased
C[C@H]1CN(c2n[nH]c3nc(N[C@H]4CC[C@H](NS(=O)(=O)CCC(F)(F)F)CC4)ncc23)CCO1  remaining binding (Dynactin subunit 2 (DCTN2, Homo sapiens, UniProt Q13561); Kinobeads competition, item: DCTN2; 0.8 µM, unit not given; reference: vehicle): 1.27
CN1CC[C@@]2(C)c3cc(OC(=O)Nc4ccccc4)ccc3N(C)[C@@H]12  inhibition (human nicotinic α3β2 receptor; radioligand binding; 10 µM, added: [3H]epibatidine): 6.1%
CN[C@]1(c2ccccc2Cl)CCCCC1=O  inhibition (P2X receptor; radioligand binding, agonist, radioligand displacement; 30 µM): 0%
COc1cc(CCNC(C)c2ccccc2O)c(OC)cc1C#N (single isomer, unassigned; (+))  Emax (HTR2C (Homo sapiens, UniProt P28335); Gq dissociation, agonist, BRET; reference: 5-HT): 109%

For quick reference, copied from above:
COc1ccc(N2C(=O)N(c3c(C)cccc3Cl)Cc3cnc(Nc4ccc(C5CCN(C)CC5)cc4OC)nc32)nc1  inhibition (CAMK1 (Homo sapiens, UniProt Q14012); kinase activity, inhibitor; 0.5 µM, kinase CAMK1A): 4.26%
O=C(c1ccc(Cl)cc1)N1CCN2C(=O)N(OC(=O)N3CCOc4ccccc43)C(=O)C2C1 (centres unmarked)  median ratio (Protein ABHD13 (ABHD13, Homo sapiens, UniProt Q7L211); enzyme activity, inhibitor, MS-based ABPP; SW-620 in situ; 10 µM, 2 h, 37 °C; reference: compound over DMSO, lower = stronger inhibition): 1.24
